Experimental data collected from several papers.
Each line is one published result; not all experiments were run side by side. Numbers after ± are the reported error.
Cytochrome P450 2A13: Cytochrome P450 2A13 (Homo sapiens, UniProt Q16696)
Sequence of UniProt Q16696 (whole entry, looked up): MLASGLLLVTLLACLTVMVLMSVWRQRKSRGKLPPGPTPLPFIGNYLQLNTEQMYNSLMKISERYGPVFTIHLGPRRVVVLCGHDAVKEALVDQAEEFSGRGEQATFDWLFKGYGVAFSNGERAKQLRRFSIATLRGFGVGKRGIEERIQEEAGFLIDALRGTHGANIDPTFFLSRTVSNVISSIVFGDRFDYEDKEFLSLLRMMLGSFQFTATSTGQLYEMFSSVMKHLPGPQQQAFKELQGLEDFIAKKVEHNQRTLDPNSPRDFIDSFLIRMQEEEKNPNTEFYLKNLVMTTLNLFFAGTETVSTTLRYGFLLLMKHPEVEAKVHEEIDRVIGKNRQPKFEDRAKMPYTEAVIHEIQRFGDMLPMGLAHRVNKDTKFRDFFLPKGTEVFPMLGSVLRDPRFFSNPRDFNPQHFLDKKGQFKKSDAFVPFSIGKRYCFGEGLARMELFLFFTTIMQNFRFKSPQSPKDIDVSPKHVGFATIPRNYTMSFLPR
gag-pol reverse transcriptase: Gag-Pol polyprotein, reverse transcriptase (gag-pol, Human immunodeficiency virus 1, UniProt P03366)
ACTA1 pyrene-labeled: Actin, alpha skeletal muscle, pyrene-labeled (ACTA1, Oryctolagus cuniculus, UniProt P68135)
Uncharacterized protein: Uncharacterized protein (Equus caballus, UniProt Q38RB9)
Sequence of UniProt Q00987 (whole entry, looked up): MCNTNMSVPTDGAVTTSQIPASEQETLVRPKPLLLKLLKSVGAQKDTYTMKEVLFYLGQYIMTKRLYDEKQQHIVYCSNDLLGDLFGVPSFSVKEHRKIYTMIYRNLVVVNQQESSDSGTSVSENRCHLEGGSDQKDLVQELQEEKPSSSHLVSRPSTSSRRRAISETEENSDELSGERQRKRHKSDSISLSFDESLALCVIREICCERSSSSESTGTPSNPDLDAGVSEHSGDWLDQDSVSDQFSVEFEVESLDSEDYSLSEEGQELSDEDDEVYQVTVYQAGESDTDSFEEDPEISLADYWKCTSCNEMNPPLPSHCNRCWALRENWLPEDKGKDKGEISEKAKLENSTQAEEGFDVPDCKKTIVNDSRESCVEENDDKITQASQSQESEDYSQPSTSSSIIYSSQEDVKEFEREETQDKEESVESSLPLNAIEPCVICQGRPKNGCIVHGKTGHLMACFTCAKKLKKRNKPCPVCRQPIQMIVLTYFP
Sequence of UniProt P0AC78 (whole entry, looked up): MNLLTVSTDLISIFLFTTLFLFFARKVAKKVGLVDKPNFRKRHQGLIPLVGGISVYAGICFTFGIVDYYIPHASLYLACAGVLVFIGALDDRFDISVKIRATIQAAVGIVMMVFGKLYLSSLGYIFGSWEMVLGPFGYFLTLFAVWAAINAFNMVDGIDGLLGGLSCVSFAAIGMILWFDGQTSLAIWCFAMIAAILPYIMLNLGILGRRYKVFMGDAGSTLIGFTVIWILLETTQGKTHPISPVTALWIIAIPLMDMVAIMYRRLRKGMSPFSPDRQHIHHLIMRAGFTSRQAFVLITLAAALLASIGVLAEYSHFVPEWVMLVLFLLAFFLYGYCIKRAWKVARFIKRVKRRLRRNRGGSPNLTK
Sequence of UniProt Q99436 (whole entry, looked up): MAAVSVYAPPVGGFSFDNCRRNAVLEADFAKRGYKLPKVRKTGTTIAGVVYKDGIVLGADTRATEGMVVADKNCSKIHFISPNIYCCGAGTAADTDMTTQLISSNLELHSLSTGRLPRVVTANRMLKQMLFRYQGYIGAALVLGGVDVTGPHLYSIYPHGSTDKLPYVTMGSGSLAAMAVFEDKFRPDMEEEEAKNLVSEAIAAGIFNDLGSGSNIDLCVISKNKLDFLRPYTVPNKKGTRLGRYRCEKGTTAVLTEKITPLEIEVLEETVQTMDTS
Sequence of UniProt Q8BHN3 (whole entry, looked up): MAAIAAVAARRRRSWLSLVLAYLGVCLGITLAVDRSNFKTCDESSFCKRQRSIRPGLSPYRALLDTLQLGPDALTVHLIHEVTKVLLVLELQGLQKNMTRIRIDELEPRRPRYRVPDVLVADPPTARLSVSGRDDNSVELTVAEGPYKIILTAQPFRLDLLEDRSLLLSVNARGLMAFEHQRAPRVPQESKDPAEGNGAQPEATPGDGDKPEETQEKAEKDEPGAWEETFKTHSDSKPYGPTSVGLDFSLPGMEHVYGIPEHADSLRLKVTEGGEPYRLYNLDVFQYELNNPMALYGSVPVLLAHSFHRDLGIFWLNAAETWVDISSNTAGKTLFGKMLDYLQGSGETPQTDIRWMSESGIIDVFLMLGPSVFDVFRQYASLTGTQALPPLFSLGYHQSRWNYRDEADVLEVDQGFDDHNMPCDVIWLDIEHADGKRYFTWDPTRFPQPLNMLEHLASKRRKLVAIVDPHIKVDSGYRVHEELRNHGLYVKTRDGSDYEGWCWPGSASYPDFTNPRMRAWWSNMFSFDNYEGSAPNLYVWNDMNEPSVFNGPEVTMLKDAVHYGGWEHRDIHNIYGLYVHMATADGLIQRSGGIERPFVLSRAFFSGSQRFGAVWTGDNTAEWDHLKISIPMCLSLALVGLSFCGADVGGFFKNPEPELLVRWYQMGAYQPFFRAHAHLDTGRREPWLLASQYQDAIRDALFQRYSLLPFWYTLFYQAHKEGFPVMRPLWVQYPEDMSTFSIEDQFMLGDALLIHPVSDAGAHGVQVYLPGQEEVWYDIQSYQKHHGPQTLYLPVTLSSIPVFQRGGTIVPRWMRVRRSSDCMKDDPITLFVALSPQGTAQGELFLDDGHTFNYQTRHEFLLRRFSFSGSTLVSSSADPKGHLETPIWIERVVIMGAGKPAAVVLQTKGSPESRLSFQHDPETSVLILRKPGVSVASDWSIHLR
Sequence of UniProt Q14994 (whole entry, looked up): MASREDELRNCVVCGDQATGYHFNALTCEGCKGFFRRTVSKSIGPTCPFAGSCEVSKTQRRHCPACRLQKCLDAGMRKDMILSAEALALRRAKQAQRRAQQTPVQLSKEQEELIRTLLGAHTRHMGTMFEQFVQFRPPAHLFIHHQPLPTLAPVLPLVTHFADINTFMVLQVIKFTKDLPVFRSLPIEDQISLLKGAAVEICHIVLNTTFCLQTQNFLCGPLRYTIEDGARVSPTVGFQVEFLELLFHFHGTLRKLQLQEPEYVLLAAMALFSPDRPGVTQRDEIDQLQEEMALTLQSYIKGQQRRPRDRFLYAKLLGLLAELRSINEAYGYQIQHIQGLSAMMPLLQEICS
Sequence of UniProt Q01959 (whole entry, looked up): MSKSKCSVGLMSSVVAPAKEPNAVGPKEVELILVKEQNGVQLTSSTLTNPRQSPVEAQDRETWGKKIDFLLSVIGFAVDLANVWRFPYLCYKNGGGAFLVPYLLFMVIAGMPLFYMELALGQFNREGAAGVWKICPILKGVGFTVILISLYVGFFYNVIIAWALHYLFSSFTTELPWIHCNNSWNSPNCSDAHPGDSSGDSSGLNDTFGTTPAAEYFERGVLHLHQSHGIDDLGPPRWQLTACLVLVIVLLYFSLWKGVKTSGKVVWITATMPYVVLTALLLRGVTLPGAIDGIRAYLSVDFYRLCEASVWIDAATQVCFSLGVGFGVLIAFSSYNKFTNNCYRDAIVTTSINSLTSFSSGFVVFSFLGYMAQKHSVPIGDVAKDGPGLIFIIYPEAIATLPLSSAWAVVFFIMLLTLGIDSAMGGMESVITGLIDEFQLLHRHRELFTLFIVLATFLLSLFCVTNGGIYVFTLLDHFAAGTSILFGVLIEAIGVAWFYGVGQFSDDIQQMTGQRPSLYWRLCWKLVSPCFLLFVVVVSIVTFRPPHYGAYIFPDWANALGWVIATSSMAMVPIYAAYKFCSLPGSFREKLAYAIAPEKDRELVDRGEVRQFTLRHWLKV
Sequence of UniProt P33535 (whole entry, looked up): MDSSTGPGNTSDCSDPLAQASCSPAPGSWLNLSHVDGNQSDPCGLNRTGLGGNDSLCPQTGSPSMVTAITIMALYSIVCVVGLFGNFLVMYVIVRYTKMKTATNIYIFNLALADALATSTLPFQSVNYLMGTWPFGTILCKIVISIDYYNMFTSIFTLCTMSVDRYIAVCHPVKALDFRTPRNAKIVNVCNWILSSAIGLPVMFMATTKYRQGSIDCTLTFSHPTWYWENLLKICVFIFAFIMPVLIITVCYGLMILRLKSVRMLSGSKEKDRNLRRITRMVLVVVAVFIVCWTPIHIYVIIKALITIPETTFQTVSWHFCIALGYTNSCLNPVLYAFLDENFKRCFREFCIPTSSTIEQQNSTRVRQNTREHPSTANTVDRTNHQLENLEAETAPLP
Sequence of UniProt Q16543 (whole entry, looked up): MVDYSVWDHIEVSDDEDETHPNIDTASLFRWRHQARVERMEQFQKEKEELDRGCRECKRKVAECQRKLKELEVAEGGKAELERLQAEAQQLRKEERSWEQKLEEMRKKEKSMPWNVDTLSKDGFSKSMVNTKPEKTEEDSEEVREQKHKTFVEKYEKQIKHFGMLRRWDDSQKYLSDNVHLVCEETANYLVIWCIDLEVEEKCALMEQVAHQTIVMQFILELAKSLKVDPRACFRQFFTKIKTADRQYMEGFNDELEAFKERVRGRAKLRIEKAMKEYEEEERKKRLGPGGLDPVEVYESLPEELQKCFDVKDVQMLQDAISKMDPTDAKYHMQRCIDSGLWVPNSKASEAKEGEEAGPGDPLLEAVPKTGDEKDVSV
Sequence of UniProt Q9NXA8 (whole entry, looked up): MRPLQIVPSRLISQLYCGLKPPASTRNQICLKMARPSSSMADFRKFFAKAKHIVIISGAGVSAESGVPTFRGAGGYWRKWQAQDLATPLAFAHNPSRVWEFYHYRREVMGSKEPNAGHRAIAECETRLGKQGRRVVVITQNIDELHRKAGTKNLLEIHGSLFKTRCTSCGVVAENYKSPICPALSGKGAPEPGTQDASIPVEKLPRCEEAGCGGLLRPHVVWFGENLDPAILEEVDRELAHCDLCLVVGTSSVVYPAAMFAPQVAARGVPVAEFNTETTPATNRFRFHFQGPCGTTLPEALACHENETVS
Sequence of UniProt Q9NZQ7 (whole entry, looked up): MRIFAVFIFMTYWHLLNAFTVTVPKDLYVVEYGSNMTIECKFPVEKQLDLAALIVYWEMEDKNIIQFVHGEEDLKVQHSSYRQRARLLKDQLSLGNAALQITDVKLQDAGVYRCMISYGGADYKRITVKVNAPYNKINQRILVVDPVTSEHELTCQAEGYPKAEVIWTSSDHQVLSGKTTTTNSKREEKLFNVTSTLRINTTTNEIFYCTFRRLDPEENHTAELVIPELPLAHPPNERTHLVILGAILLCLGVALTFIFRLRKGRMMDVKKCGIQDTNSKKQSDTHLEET

SMILES = O=[N+]([O-])c1cc(-c2ccccc2)ccc1NCCCCCCN1C[C@H](O)[C@@H](O)[C@H](O)[C@H]1CO; target = Ganab (Mus musculus, UniProt Q8BHN3); test = enzyme activity, inhibitor; conditions = added: 4-methylumbelliferyl substrate; IC50 = < 1 nM
SMILES = CCOC(=O)[C@H]1Cc2c(cc([N+](=O)[O-])cc2[N+](=O)[O-])[C@@H](O)[C@@]12C(=O)Nc1cc(Cl)ccc12; target = MDM2 (Homo sapiens, UniProt Q00987); IC50 = 790 ± 90 nM
SMILES = CN1CCN(CCOc2c(Cl)cc(C(=O)N[C@@H](Cc3ccccc3)C(=O)O)c(O)c2Cl)CC1; target = CPSF3 (Homo sapiens, UniProt Q9UKF6); test = pre-mRNA cleavage, inhibitor; test system = HeLa nuclear extract; conditions = added: Chimera_2 substrate; IC50 = 89600 nM
SMILES = C#Cc1cc2cccc3ccc4cccc1c4c32; target = Cytochrome P450 2A13; test = enzyme activity, inhibitor; conditions = 20 min, pH 7.4; IC50 = > 80000 nM
SMILES = COC(CNC(=O)c1ccccc1OCC(=O)O)[CH2][Hg][OH] (centres unmarked); target = SLC25A13 (Homo sapiens, UniProt Q9UJS0); test = aspartate/glutamate exchange; test system = proteoliposomes; conditions = 1 min, added: [14C]Asp 1 mM, Glu 20 mM inside; IC50 = 300 ± 50 nM
SMILES = O=C1CSC(c2c(F)cccc2Cl)N1c1cccc(S(=O)(=O)Nc2nccs2)c1 (centres unmarked); target = gag-pol reverse transcriptase; IC50 = > 4000 nM
SMILES = C/C1=C/C(=O)O[C@@H]2C[C@@H](CC[C@H](C)/C=C\C=C\CC1)O[C@@](O)([C@@H]1CSC(=O)N1Cc1ccccc1)C2; target = ACTA1 pyrene-labeled; test = actin polymerization, pyrene actin; IC50 = 445 ± 79 nM
SMILES = CC#Cc1cc2cccc3ccc4cccc1c4c32; target = Cytochrome P450 2A13; test = enzyme activity, inhibitor; conditions = 20 min, pH 7.4; IC50 = > 180000 nM
SMILES = CCN1C(=O)SCC1C1(OC)CC2CC(CCC(C)C=CC=CCCC(C)=CC(=O)O2)O1 (centres unmarked); target = ACTA1 pyrene-labeled; test = actin polymerization, pyrene actin; IC50 = > 10000 nM
SMILES = OC1C=Cc2c(ccc3ccc4ccccc4c23)C1O (centres unmarked); target = Cytochrome P450 2A13; test = enzyme activity, inhibitor; conditions = 20 min, pH 7.4; IC50 = > 200000 nM
SMILES = C#CCNC(=O)c1ccc(S(=O)(=O)N[C@@H](CCCCNC(=O)c2cccc(OS(=O)(=O)F)c2)C(=O)N[C@@H](Cc2c[nH]c3ccccc23)C(=O)NC2CCC2)cc1; target = SIRT5 (Homo sapiens, UniProt Q9NXA8); test = inhibitor, fluorogenic; conditions = 4 h preincubation, His-tagged enzyme 150 nM, added: NAD+ 500 µM; IC50 = 19600 ± 7900 nM
SMILES = Cc1cc(O)cc(C)c1C[C@H](N)C(=O)N[C@H](C)C(=O)NCC(=O)N[C@@H](Cc1ccc(Cl)cc1)C(=O)N(C)CCC[C@@]1(c2ccc(F)cc2)OCc2cc(C#N)ccc21; target = Oprm1 (Rattus norvegicus, UniProt P33535); IC50 = 26.9 nM
SMILES = C#Cc1ccc2ccc3ccccc3c2c1; target = Cytochrome P450 2A13; test = enzyme activity, inhibitor; conditions = 20 min, pH 7.4; IC50 = 400 to 10000 nM
SMILES = O=C1CSC(c2cccc(F)c2)N1c1nc(-c2ccc(S(=O)(=O)N3CCOCC3)cc2)cs1 (centres unmarked); target = gag-pol reverse transcriptase; IC50 = > 4000 nM
SMILES = CN(C)c1nc(N)c(C(=O)NC(=N)N)nc1Cl; target = Genome polyprotein, 3D RNA polymerase (Coxsackievirus B3, UniProt P03313); test = RNA polymerase activity, inhibitor, single AMP incorporation; conditions = no Mg2+ preincubation; IC50 = 82000 ± 29000 nM
SMILES = CC(C)C[C@H](NC(=O)[C@H](CO)NC(=O)[C@H](CCCCN)NC(=O)[C@@H](NC(=O)[C@H](CC(C)C)NC(=O)CNC(=O)[C@H](C)NC(=O)[C@H](CC(=O)O)NC(=O)[C@@H](N)CCCCN)C(C)C)C(=O)O; target = Uncharacterized protein; test = peptide binding, competitor, competitive radioligand binding; test system = purified horse MHC class I; conditions = pH 7; IC50 = 20 nM
SMILES = CO[C@H]1C[C@H](O[C@H]2[C@H](C)O[C@@H](O[C@@H]3/C(C)=C/C[C@@H]4C[C@@H](C[C@]5(C=C[C@H](C)[C@@H](C6CCCCC6)O5)O4)OC(=O)[C@@H]4C=C(C)[C@@H](O)[C@H]5OC/C(=C\C=C\[C@@H]3C)[C@]54O)C[C@@H]2OC)O[C@@H](C)[C@@H]1O; target = Nuclear receptor subfamily 1 group I member 3 (Homo sapiens, UniProt Q14994); test = coactivator recruitment; IC50 = 1840 ± 540 nM
SMILES = O=C1CSC(c2cccc(Cl)c2)N1c1cccc(S(=O)(=O)Nc2nccs2)c1 (centres unmarked); target = gag-pol reverse transcriptase; IC50 = 2050 nM
SMILES = CSCC[C@H](NC(=O)[C@@H](NC(=O)[C@H](Cc1ccccc1)NC(=O)[C@H](Cc1c[nH]c2ccccc12)NC(=O)[C@H](C)NC(C)=O)C(C)C)C(=O)N[C@@H](Cc1ccccc1)C(=O)N[C@@H](Cc1ccc(O)cc1)C(N)=O; target = Programmed cell death 1 ligand 1, with PD-1 (CD274, Homo sapiens, UniProt Q9NZQ7); test = PD-1/PD-L1 binding, ELISA; conditions = added: biotinylated human PD-1; IC50 = 4870 nM
SMILES = CC(C)C[C@@H](CNC(=O)N[C@@H](C)CNC(=O)N1CCC[C@H]1C(N)=O)NC(=O)[C@H](C)NC(=O)[C@H](Cc1c[nH]c2ccccc12)NC(=O)[C@H](Cc1ccc(O)cc1)NC(=O)[C@H](CCC(=O)O)NC(=O)[C@H](C)NC(=O)[C@H](Cc1ccccc1)NC(=O)[C@H](CO)NC(=O)[C@@H](N)[C@@H](C)O; target = E3 ubiquitin-protein ligase Mdm2, with p53 (MDM2, Homo sapiens, UniProt Q00987); test = inhibitor; IC50 = 54.6 nM
SMILES = COc1ccc(C[C@H](NC(=O)[C@H](C)NC(=O)CN2CCOCC2)C(=O)N[C@@H](CC2CCC(C(F)(F)F)CC2)C(=O)[C@@]2(C)CO2)cc1 (some centres unmarked); target = PSMB7 (Homo sapiens, UniProt Q99436); test = inhibitor, competitive ABPP; test system = Raji cell lysate; conditions = constitutive proteasome β2c; IC50 = > 10000 nM
SMILES = CC[C@H](C)[C@H](NC(=O)[C@H](CC(N)=O)NC(=O)[C@H](CO)NC(=O)[C@@H](NC(=O)[C@H](CCCCN)NC(=O)[C@@H](NC(=O)[C@H](Cc1ccc(O)cc1)NC(=O)[C@H](CC(=O)O)NC(=O)[C@@H](N)CO)C(C)C)C(C)C)C(=O)O; target = Uncharacterized protein; test = peptide binding, competitor, competitive radioligand binding; test system = purified horse MHC class I; conditions = pH 7; IC50 = 0.66 nM
SMILES = O=C1CSC(c2cccc(Br)c2)N1c1cccc(S(=O)(=O)Nc2nccs2)c1 (centres unmarked); target = gag-pol reverse transcriptase; IC50 = > 4000 nM
SMILES = CC[C@H](C)[C@H](NC(=O)[C@H](CC(=O)O)NC(=O)[C@H](CCSC)NC(=O)[C@H](CC(=O)O)NC(=O)[C@@H](N)CCCCN)C(=O)N[C@H](C(=O)N[C@H](C(=O)N[C@@H](CCCCN)C(=O)N[C@@H](Cc1ccccc1)C(=O)O)[C@@H](C)O)[C@@H](C)CC; target = Uncharacterized protein; test = peptide binding, competitor, competitive radioligand binding; test system = purified horse MHC class I; conditions = pH 7; IC50 = 16 nM
SMILES = CNC(C)Cc1ccc2nsnc2c1 (centres unmarked); target = SLC6A3 (Homo sapiens, UniProt Q01959); IC50 = 4500 ± 1300 nM
SMILES = CC(=O)[C@H]1CC[C@H]2[C@@H]3C[C@H](C)C4=CC(=O)CC[C@]4(C)[C@H]3[C@@H](O)C[C@]12C; target = Androgen receptor (Ar, Rattus norvegicus, UniProt P15207); test = inhibitor; IC50 = 257 nM
SMILES = C[C@H]1CN(c2n[nH]c3nc(N[C@H]4CC[C@H](NS(=O)(=O)CCC(F)(F)F)CC4)ncc23)CCO1; target = CDC37 (Homo sapiens, UniProt Q16543); test = biochemical; IC50 = ≥ 20000 nM
SMILES = CO[C@H]1[C@H](O[C@H]([C@H]2O[C@@H](n3ccc(=O)[nH]c3=O)[C@H](O)[C@@H]2O)[C@H](NCCCNC(=O)[C@@H](NC(=O)[C@@H](NC(=O)N[C@H](C(=O)O)C(C)C)[C@@H]2CCN=C(N)N2)[C@@H](O)C(C)C)C(=O)O)O[C@H](CN)[C@H]1O; target = Undecaprenyl-phosphate alpha-N-acetylglucosaminyl 1-phosphate transferase (wecA, Escherichia coli, UniProt P0AC78); test = enzyme activity, inhibitor; IC50 = 660 ± 15 nM
SMILES = COc1cc(Nc2ncc(F)c(Nc3ccc4c(n3)NC(=O)C(C)(C)O4)n2)cc(OC)c1OC; target = CXCR1/CXCR2 (non-selective); IC50 = > 10000 nM

Some of these lines once more:
SMILES = CN(C)c1nc(N)c(C(=O)NC(=N)N)nc1Cl; target = Genome polyprotein, 3D RNA polymerase (Coxsackievirus B3, UniProt P03313); test = RNA polymerase activity, inhibitor, single AMP incorporation; conditions = no Mg2+ preincubation; IC50 = 82000 ± 29000 nM
SMILES = CC(C)C[C@H](NC(=O)[C@H](CO)NC(=O)[C@H](CCCCN)NC(=O)[C@@H](NC(=O)[C@H](CC(C)C)NC(=O)CNC(=O)[C@H](C)NC(=O)[C@H](CC(=O)O)NC(=O)[C@@H](N)CCCCN)C(C)C)C(=O)O; target = Uncharacterized protein; test = peptide binding, competitor, competitive radioligand binding; test system = purified horse MHC class I; conditions = pH 7; IC50 = 20 nM
